# Results collected from several papers.
# Protocols differ between the studies behind these lines. Numbers after ± are the reported error.
Substance,assay,test system,conditions,scale,measurement,value
CCCOc1ccc([C@H]2CNC(=O)N2c2ccc3[nH]cnc3c2)cc1,,"human volunteers fasted, plasma","oral solution, 200 mg single dose, day 1, geometric mean",,effective half-life,2.43 h
O=C(CCCN1CCCN(c2ccc(Cl)cc2)CC1)c1ccc(F)cc1,,"male Sprague-Dawley rats, plasma","intravenous, 1.7 mg/kg, added: HAL 0.7 mg/kg plus BCT 0.1 mg/kg",,Vss,2 ± 0.03 L/kg
CC(C)=CCC[C@](C)(O[C@@H]1O[C@H](CO[C@@H]2O[C@H](CO)[C@@H](O)[C@H](O)[C@H]2O)[C@@H](O)[C@H](O)[C@H]1O)[C@H]1CC[C@]2(C)[C@@H]1[C@H](O)C[C@@H]1[C@@]3(C)CC[C@H](O[C@@H]4O[C@H](CO)[C@@H](O)[C@H](O)[C@H]4O[C@@H]4O[C@H](CO)[C@@H](O)[C@H](O)[C@H]4O)C(C)(C)[C@@H]3CC[C@]12C,,"Sprague Dawley rat, male, plasma","oral, 86 mg/kg, pure ginsenoside mixture in water",,CL/F,2.67 ± 0.5 mL/min/kg
Fc1cc(Cl)c(Nc2ccc(F)cc2Cc2nnn[nH]2)c(Cl)c1,,human liver microsomes,"30 min, added: NADPH",,remaining compound,103 ± 1.3%
O=C1N=C(N2CCOCC2)CN1c1ccc(Cl)cc1,,"beagle dog, both sexes, plasma","oral, 30 mg/kg, tablets, fed, day 5",,terminal half-life,1.94 h
CCOc1ccc(Cc2cc([C@@H]3S[C@H](CO)[C@@H](O)[C@H](O)[C@H]3O)c(OC)cc2C)cc1,,"human, plasma","oral, 25 mg, single dose, fasted, healthy volunteers",,AUC(0-inf),8510 ng·h/mL
Oc1ccc(/C=C/c2cc3ccc4cccc5ccc(c2)c3c45)cc1O,,water,aggregation above range,,linear absorbance range,≤ 2 µM
colistin methanesulfonate,,0.9% NaCl,above CMC,,conversion to colistin,< 1%
Cn1c(-c2ccc(C(N)=O)cc2F)nnc1C(C)(C)Oc1c(F)cc(Cl)cc1F,,"healthy young Japanese subjects, plasma","oral, 10 mg once daily, day 18, 14 days dosing",,Tmax median,2 h
CCCC[C@H](NC(C)=O)C(=O)N[C@H]1CCC(=O)NC[C@@H](C(=O)N[C@@H](Cc2c[nH]c3ccccc23)C(N)=O)NC(=O)[C@H](CCCNC(=N)N)NC(=O)[C@@H](Cc2ccccc2)NC(=O)[C@H](Cc2c[nH]cn2)NC1=O,,"CD Sprague-Dawley rat, male, plasma","subcutaneous, 1.0 mg/kg/day, day 28",,AUC(0-t),933 ng·h/mL
O=C1CN(/N=C/c2ccc(-c3ccc([N+](=O)[O-])cc3)o2)C(O)=N1,,"Sprague-Dawley rat, male, blood","oral, 100 mg/kg, 6 h",,ALT,decreased
O=C1Nc2c(C(=O)O)ccnc2N(C2CC2)c2ncccc21,,"olive baboon (Papio anubis), non-pregnant, serum","oral, 10 mg/kg of nevirapine, solution, single dose",,AUC(0-8 h),1080 ± 441 ng·h/mL
CCOc1ccc(Cc2cc([C@]34OC[C@](CO)(O3)[C@@H](O)[C@H](O)[C@H]4O)ccc2Cl)cc1,,"healthy human, normal renal function, urine and plasma","oral, 15 mg single dose, 0 to 96 h urine, geometric mean",,renal clearance,1.68 mL/min
CCOc1c([C@H](C)n2nc(C)c3c(N)ncnc32)cc(Cl)c(F)c1[C@@H]1CNC(=O)C1,,"healthy fasted humans, plasma","oral, 20 mg",,terminal half-life geometric mean,14.2 h
Cc1cc(C)c(C(N)=O)c(SCC(=O)c2ccc(F)cc2)n1,metabolic stability,"human, liver microsomes","0.5 µM, pH 7.4",,microsomal CLint,< 23.1 µL/min/mg
C#Cc1c(F)ccc2cc(O)cc(-c3ncc4c(N5CC6CCC(C5)N6)nc(OC[C@@]56CCCN5C[C@H](F)C6)nc4c3F)c12,,"female Balb/c nude mouse, tumour model","oral, 126 mg/kg twice daily of prodrug, 2 h after last dose",,tumour concentration,2110 ng/g
O=C(O)COC[C@H]1CC[C@H](COC(=O)N(c2ccccc2)c2ccc(Cl)cc2)CC1,,human,"oral, 10 µg twice daily, steady state",,effective half-life,17.5 h
C[C@@H]1CCC[C@H](n2cnc(-c3cc(Cl)ccc3-n3cc(Cl)nn3)cc2=O)c2cc(ccn2)-c2c(cnn2C(F)F)NC1=O,,"human, plasma","oral, 60 mg, single dose, fasted, healthy volunteers",,AUC(0-inf),4100 ng·h/mL
acyl ghrelin (human),,"mouse, Ghsr knockout, hypothalamus","intravenous, 10 min",,brain/serum ratio,5.39 µL/g
O=C(Nc1ccc(OC(F)(F)F)cc1)N[C@H]1CC[C@H](Oc2ccc(C(=O)O)cc2)CC1,,"mares, plasma","intravenous, 0.1 mg/kg",,Vss,1.25 ± 0.34 L/kg
NC(=O)CC[C@@H]1NC(=O)[C@H](Cc2ccccc2)NC(=O)[C@H](Cc2ccc(O)cc2)NC(=O)CCSSC[C@@H](C(=O)N2CCC[C@H]2C(=O)N[C@H](CCCN=C(N)N)C(=O)NCC(N)=O)NC(=O)[C@H](CC(N)=O)NC1=O,UPLC-MS/MS,processed plasma extract,"3.05 pg/mL, 24 h",,reinjection stability,100%
C[C@]12CC[C@@H]3c4ccc(O)cc4CC[C@H]3[C@@H]1C[C@@H](O)[C@@H]2O,GC-MS,"breast cancer women on NSAI, serum","vaginal, 0.03 mg, 2 h, day 0",,mean serum concentration,0.0727 ng/mL
CCCC[C@@H]1NC(=O)[C@@H](NC(=O)[C@H](CCC(=O)O)NC(=O)CNC(=O)CN2CCN(CC(=O)O)CCN(CC(=O)O)CCN(CC(=O)O)CC2)CCCCNC(=O)C[C@@H](C(N)=O)NC(=O)[C@H](C(C)C)NC(=O)[C@@H]2CCCN2C(=O)[C@H](CCCNC(=N)N)NC(=O)CNC(=O)[C@H](Cc2c[nH]c3ccccc23)NC(=O)[C@H](CCCNC(=N)N)NC(=O)[C@@H](Cc2ccccc2)NC(=O)[C@H](Cc2c[nH]cn2)NC(=O)[C@H](CCC(=O)O)NC1=O [indium-111 labelled],,"C57 mice, B16/F10 lung metastatic melanoma, muscle","intravenous, 0.037 MBq, 2 h",,tissue uptake,0.04 ± 0.03 %ID/g
Cc1cc(Nc2ncc(Cl)c(Nc3ccccc3S(=O)(=O)C(C)C)n2)c(OC(C)C)cc1C1CCNCC1,measured: unbound drug,"patients, plasma","oral, 750 or 450 mg/day, 23.7 h, arithmetic mean",,"Css,min",12 nM
N#Cc1ccc(C(c2ccc(C#N)cc2)n2cncn2)cc1,,"patients, plasma","oral, 2.5 mg once daily, inavolisib palbociclib letrozole arm",,steady-state Cmin,334 nM
C[C@@H](O)[C@H]1C(=O)N2C(C(=O)O)=C(S[C@@H]3CN[C@H](C(=O)N(C)C)C3)[C@H](C)[C@H]12,microdialysis,"pig, Danish Landrace, cortical bone","intravenous, 1000 mg over 10 min, 450 min dosing interval, added: 0.125 µg/mL MIC",baseline: dosing interval,time above MIC,42%
CC[C@H](C)[C@H](NC(=O)[C@H](CCCNC(=N)N)NC(=O)[C@@H]1CCCN1C(C)=O)C(=O)N[C@@H](CC(=O)O)C(=O)N[C@H](C(=O)N[C@@H](CCCNC(=N)N)C(=O)N[C@H](C(=O)N[C@@H](CC(=O)O)C(=O)N1CCC[C@H]1C(N)=O)[C@@H](C)CC)[C@@H](C)CC,rotational rheometry,1% w/v aqueous solution,shear rate range 1-1000 s^-1,,viscosity,543 ± 19.5 Pa·s
Cc1cnc(N2CC3(CCOCC3)C2)c(C(=O)Nc2ccc(C(=O)N3CCc4cc(C(=O)Nc5c(C)cccc5F)sc4-c4ccccc43)cc2)c1,,"human, plasma","inhaled nebulised, 5 mg twice daily repeated",,effective half-life,12 to 24 h
Cc1ccc(Nc2nccc(N(C)c3ccc4c(C)n(C)nc4c3)n2)cc1S(N)(=O)=O,HPLC-MS/MS,"patients, plasma total drug","oral, 800 mg daily",,steady-state concentration,30.9 ± 11.2 µg/mL
O=C(Cc1cccc(OC(F)(F)F)c1)Nc1ccc(CCCCc2nnc(NC(=O)Cc3ccccn3)s2)nn1,,"human patients, plasma","oral, 600 mg three times daily fasted, cycle 1 day 15 steady state",,Cmin,231 ng/mL
[2H]C([2H])([2H])Oc1cc2c(cc1OC([2H])([2H])[2H])C1CC(=O)C(CC(C)C)CN1CC2 (stereo not drawn),measured: deuterated β-HTBZ,"healthy human volunteers, plasma","oral, 24 mg single dose, standard meal",,dose-normalized AUC(0-inf),6 ng·h/mL
Nc1ccc(-c2nc(-c3ccc(Oc4ccc(C(F)(F)F)cc4)cc3)no2)cc1,,"ICR mice, plasma","intravenous, 50 mg/kg",,initial half-life,6.7 min
COc1ccc(/C=C\c2cc(OC)c(OC)c(OC)c2)cc1OP(=O)(O)O,,"Sprague-Dawley rat male, plasma","intravenous, 28 mg/kg",,clearance,28.8 ± 2 mL/min/kg

# A few entries again:
Substance,assay,test system,conditions,scale,measurement,value
CCCC[C@@H]1NC(=O)[C@@H](NC(=O)[C@H](CCC(=O)O)NC(=O)CNC(=O)CN2CCN(CC(=O)O)CCN(CC(=O)O)CCN(CC(=O)O)CC2)CCCCNC(=O)C[C@@H](C(N)=O)NC(=O)[C@H](C(C)C)NC(=O)[C@@H]2CCCN2C(=O)[C@H](CCCNC(=N)N)NC(=O)CNC(=O)[C@H](Cc2c[nH]c3ccccc23)NC(=O)[C@H](CCCNC(=N)N)NC(=O)[C@@H](Cc2ccccc2)NC(=O)[C@H](Cc2c[nH]cn2)NC(=O)[C@H](CCC(=O)O)NC1=O [indium-111 labelled],,"C57 mice, B16/F10 lung metastatic melanoma, muscle","intravenous, 0.037 MBq, 2 h",,tissue uptake,0.04 ± 0.03 %ID/g
Cc1cc(Nc2ncc(Cl)c(Nc3ccccc3S(=O)(=O)C(C)C)n2)c(OC(C)C)cc1C1CCNCC1,measured: unbound drug,"patients, plasma","oral, 750 or 450 mg/day, 23.7 h, arithmetic mean",,"Css,min",12 nM
N#Cc1ccc(C(c2ccc(C#N)cc2)n2cncn2)cc1,,"patients, plasma","oral, 2.5 mg once daily, inavolisib palbociclib letrozole arm",,steady-state Cmin,334 nM
C[C@@H](O)[C@H]1C(=O)N2C(C(=O)O)=C(S[C@@H]3CN[C@H](C(=O)N(C)C)C3)[C@H](C)[C@H]12,microdialysis,"pig, Danish Landrace, cortical bone","intravenous, 1000 mg over 10 min, 450 min dosing interval, added: 0.125 µg/mL MIC",baseline: dosing interval,time above MIC,42%
CC[C@H](C)[C@H](NC(=O)[C@H](CCCNC(=N)N)NC(=O)[C@@H]1CCCN1C(C)=O)C(=O)N[C@@H](CC(=O)O)C(=O)N[C@H](C(=O)N[C@@H](CCCNC(=N)N)C(=O)N[C@H](C(=O)N[C@@H](CC(=O)O)C(=O)N1CCC[C@H]1C(N)=O)[C@@H](C)CC)[C@@H](C)CC,rotational rheometry,1% w/v aqueous solution,shear rate range 1-1000 s^-1,,viscosity,543 ± 19.5 Pa·s
Cc1cnc(N2CC3(CCOCC3)C2)c(C(=O)Nc2ccc(C(=O)N3CCc4cc(C(=O)Nc5c(C)cccc5F)sc4-c4ccccc43)cc2)c1,,"human, plasma","inhaled nebulised, 5 mg twice daily repeated",,effective half-life,12 to 24 h
